# Published values of several laboratories.
# A part holds a random share of what one study measured.

# Study 1
# Target: Histone acetyltransferase KAT6A, both winged helices, GST fusion (KAT6A, Homo sapiens, UniProt Q92794, residues 1-181)
# Technique: protein binding microarray
# Molecule type: double-stranded DNA, one strand shown
# Medium: in vitro
# Concentration: not given
# Notes: 8-mer, flanks averaged, mean of 2 arrays, mostly near background
# Relative to: not given
# Direction: higher = stronger binding
# Target sequence (chain): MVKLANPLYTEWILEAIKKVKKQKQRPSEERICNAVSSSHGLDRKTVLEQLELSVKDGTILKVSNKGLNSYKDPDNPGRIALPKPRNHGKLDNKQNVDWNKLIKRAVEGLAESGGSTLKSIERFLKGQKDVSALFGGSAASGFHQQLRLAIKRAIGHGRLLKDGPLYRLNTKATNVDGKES
Sequence,E-score
AGCAATCG,-0.0491
GCTTTTCA,0
AGCATGGA,-0.218
GCCCCCCC,-0.21
GAGTGGAA,-0.12
ACTTATCC,-0.00756
CGTCCAAG,0.136
CTCGCCCC,-0.0629
AATCAAAG,0.0334
AACACTCA,-0.0461
CATAATTA,-0.0336
ATAGAACC,-0.0825
CAAGACGA,-0.0666
AAGGGAAC,-0.092
CCCCCATC,-0.223
ATCAGAAC,-0.0195
GATATTAA,0.0417
CCTCAGTC,-0.205
CCCGTATC,0.197
AAAATATA,-0.0254
CCAGCACC,-0.156
GAATTGTC,-0.103
CATCGGAG,-0.0864
AAGGAGGC,-0.119
GCGACCCA,0.0327

# Study 2
# Target: Prothrombin, mature alpha-thrombin (F2, Homo sapiens, UniProt P00734)
# Technique: aptamer microarray, sandwich
# Molecule type: DNA with 2'F-ANA
# Medium: in vitro
# Concentration: 200 nM
# Notes: whole 15-mer aptamer, many near background
# Together with: Cy3 exosite-II aptamer, 400 nM
# Direction: higher = stronger binding
# Sequence: GGTTGGTGTGGTTGG
Modification,mean fluorescence intensity
2'F-ANA at 3 6 7 8 9 11 12 15,1080 a.u.
2'F-ANA at 7 8 9 11 15,516 a.u.
2'F-ANA at 1 2 5 6 7 9 10 11 12 14 15,65.8 a.u.
2'F-ANA at 4 5 8 11 13 15,51.4 a.u.
2'F-ANA at 2 5 10 14,46.1 a.u.
2'F-ANA at 5 6 7 11 12 13 14,43.7 a.u.
2'F-ANA at 2 3 4 7 9 11 12 14,295 a.u.
2'F-ANA at 1 3 6 7 12 15,494 a.u.
2'F-ANA at 3 7 9 13 15,962 a.u.
2'F-ANA at 1 2 3 4 5 9 10 11 14 15,45.4 a.u.
2'F-ANA at 2 3 12 13 14 15,479 a.u.
2'F-ANA at 1 3 4 7 8 9 10 13 14,51.1 a.u.
2'F-ANA at 1 2 4 6 7 10 12 13 14,72.8 a.u.
2'F-ANA at 1 2 6 7 9 12 15,261 a.u.
2'F-ANA at 2 7 8 10 11 13 15,115 a.u.
2'F-ANA at 1 3 4 6 7 9 10 11 14,53.9 a.u.
2'F-ANA at 2 5 6 7 9 11 13 14,45.5 a.u.
2'F-ANA at 3 4 5 6 10 13 15,44.4 a.u.
2'F-ANA at 1 3 4 12 13 15,272 a.u.
2'F-ANA at 4 6 7 10 12 14 15,59.3 a.u.
2'F-ANA at 1 2 3 6 7 8 11 13 14 15,87.2 a.u.
2'F-ANA at 1 4 5 9 11 12 13,60.3 a.u.
2'F-ANA at 1 2 3 4 7 13 14,68.6 a.u.
2'F-ANA at 6 8 11 12 14,183 a.u.

# Study 3
# Target: Ras GTPase-activating protein-binding protein 1, full length (G3BP1, Homo sapiens, UniProt Q13283)
# Sequence of UniProt Q13283 (whole entry, looked up): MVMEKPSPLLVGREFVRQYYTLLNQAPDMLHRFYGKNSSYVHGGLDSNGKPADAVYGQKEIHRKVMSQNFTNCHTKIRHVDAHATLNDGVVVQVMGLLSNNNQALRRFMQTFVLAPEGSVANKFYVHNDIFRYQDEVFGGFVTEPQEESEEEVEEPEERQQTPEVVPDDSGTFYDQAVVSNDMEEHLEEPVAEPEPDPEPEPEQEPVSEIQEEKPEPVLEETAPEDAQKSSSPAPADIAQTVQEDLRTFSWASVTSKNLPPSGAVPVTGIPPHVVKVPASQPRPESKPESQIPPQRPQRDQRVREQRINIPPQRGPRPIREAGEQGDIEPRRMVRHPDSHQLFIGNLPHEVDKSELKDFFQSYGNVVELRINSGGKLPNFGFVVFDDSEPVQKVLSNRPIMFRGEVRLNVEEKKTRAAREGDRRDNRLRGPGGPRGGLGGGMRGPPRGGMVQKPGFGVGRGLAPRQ
# Technique: RNA Bind-n-Seq
# Molecule type: RNA
# Medium: in vitro
# Concentration: 200 nM
# Notes: whole 134-nt RNA, ends assumed
# Together with: 150 mM LiCl
# Relative to: input library
# Direction: higher = stronger binding
# Library: 7-deaza-guanosine replaces G
# Constant ends, left off below: GGGAGUUCUACAGUCCGACGAUC … UGGAAUUCUCGGGUGUCAAGG
Sequence,log2 enrichment
GCAGGAAGUAAAAACAAAUGGAAAUGCUUCGGAUAGUGGCAGGGGUGGGGGUUGCUUAGGAAAGGGUGGGAUGGGAGUGGGUAAAGAGUU,-0.339
GGACACAGCUUGGGCUAUGGCUUUGUGAACUACGUGACCGCGAAGGAUGCAGAGAGAGCGAUCAACACGCUGAACGGCUUGAGGCUCCAG,-1.75
CAAGUCCUGUGCUACACAUCGUAUGUACCGAAUCGGCCCGGGGCCCGGCCCGGGGAAAGUAUUAUGUUACGCCGUUCGGAUCUGCACUUC,-0.174
GUCCUGUGCUACACAUCGUAUGUACCGAAUCAAAUUUUUUUAAACCCAAAUUUUUAAAAAAGUAUUAUGUUACGCCGUUCGGAUCUGCAC,-2.54
CCUGUGCUACACAUCGUAUGUACCGAAUCGGGGAAAAAAAGGGGUUUUUGGGGUUUGGGGAAAGUAUUAUGUUACGCCGUUCGGAUCUGC,-1.16
CAAGUCCUGUGCUACACAUCGUAUGUACCGAAUCGGAGGAAAAAGGAAAAAAAGGAAAGUAUUAUGUUACGCCGUUCGGAUCUGCACUUC,-0.114
UGCCUGUAUGGAGUGGAAUGAAUGUUGCUGGUGUCUCUCUGAAGACUCUGCACCCAGAUUUAGGGACUGAUAAAGAUAAGGAACAGUGGA,0.284
AAGUCGCGUGUCUAGGUGAGUCGCGGUGGGUCCUCGCUUGCAGUUCAGCGACCACGGUGGGUACCGUUUUUGCGAGGAUUGUUUGUCCCC,0.356
UCAAGUCCUGUGCUACACAUCGUAUGUACCGAAUCGGCCCGGCCCGGCCCGGGGAAAGUAUUAUGUUACGCCGUUCGGAUCUGCACUUCC,0.0207
CCUGUGCUACACAUCGUAUGUACCGAAUCGGGGUUUUUUUGGGUUUUUUUGGUUUUUUUGGAAAGUAUUAUGUUACGCCGUUCGGAUCUG,1.34
AGUCCUGUGCUACACAUCGUAUGUACCGAAUCGGGUUUUUUUGGGUUUUUGGGAGGGAAAGUAUUAUGUUACGCCGUUCGGAUCUGCACU,-0.203

# Study 4
# Target: Sal-like protein 4, full length isoform B (SALL4, Homo sapiens, UniProt Q9UJQ4-2, residues 1-616)
# Technique: universal PBM
# Molecule type: double-stranded DNA, one strand shown
# Medium: in vitro
# Concentration: not given
# Notes: 8-mer, flanks averaged, mean of replicates
# Direction: higher = stronger binding
Sequence,E-score
AAGCAGGG,-0.111
CGAAAAGC,-0.0287
AAGCATGG,-0.0188
GACGGATC,-0.207
GCACAGTA,0.0702
AAAAGAAT,0.233
TATCGCCA,0.0285
GACACTAA,-0.00739
AATTGCCT,0.177
GCAGGCAC,-0.289
GAAGGTGC,-0.234
CTGCGATA,-0.0368
AGGGACAG,-0.16
GAAATCAC,0.163
CACAACTC,0.0574
AATACTCA,0.251
CGCACCCG,-0.319
ACGATACG,0.111
ACGGCGGG,-0.245
ATTCCGGC,-0.224
GATACCGC,-0.0805
GTGGCGCA,-0.0996
ACGTGAAA,0.247

# Study 5
# Target: Interferon regulatory factor 5, full length, phosphomimetic (IRF5, Homo sapiens, UniProt Q13568-2, residues 1-514, S451D/S453D/S456D/S462D)
# Technique: protein-binding microarray
# Molecule type: double-stranded DNA, one strand shown
# Medium: in vitro
# Concentration: 940 nM top
# Notes: 60-bp whole probe
# Together with: salmon DNA 0.4 mg/ml
# Relative to: random background probes
# Direction: higher = stronger binding
# Constant ends, left off below: GCCTAGCAC … GTCTTGATTCGCTTGACGCTGCTG
Sequence,fitted relative affinity [z-score]
GACGGACTGCTACTGCTCACGTGCTAG,-0.651
GACGATATCAGCTTCGAGACGTGCTAG,0.0303
GGCCTTGGAGGGGGTGGGTGGTGCTAG,3.32
AACGAACTGGGGTATCGAGACGTGCTA,1.2
TTATGTTTCGGTCTCGGTTAGTGCTAG,9.54
GACGGTTACGGTCTCGGGACGTGCTAG,0.592
GACGGTTTCGACTTTCGGTACGTGCTA,8.03
TTAGGACTGCTGTTCCTTTAGTGCTAG,-0.536
GACGCTCTCAGTTTCGAGACGTGCTAG,4.57
GCTGGGTTTTCTTGGCACAGGTGCTAG,-0.0495
TTAGGTCTCCTTCTACTTTAGTGCTAG,0.592
AACATACTGATTTCCACTTTGTGCTAG,0.682
GTGACAGTTTTATTTTAGTTGGTGCTA,0.614
CAGTTTATTTATTTTTACATGTGCTAG,0.694
GACGGTTTCGGTATCGGCACGTGCTAG,12.9
GACGGACAGGACTATCGGGACGTGCTA,-0.713
TCTGTTTCCTCTTTCTTTGCGTGCTAG,2.36
GACGATATCAGAATGGAGACGTGCTAG,-0.523

# Excerpt of the above (study 4):
Sequence,E-score
CACAACTC,0.0574
AATACTCA,0.251
CGCACCCG,-0.319
ACGATACG,0.111
ACGGCGGG,-0.245
